Experimental data of several laboratories.
A part holds a random share of what one study measured. Substitutions count along the parent as printed.
Sequence of UniProt P47898 (whole entry, looked up): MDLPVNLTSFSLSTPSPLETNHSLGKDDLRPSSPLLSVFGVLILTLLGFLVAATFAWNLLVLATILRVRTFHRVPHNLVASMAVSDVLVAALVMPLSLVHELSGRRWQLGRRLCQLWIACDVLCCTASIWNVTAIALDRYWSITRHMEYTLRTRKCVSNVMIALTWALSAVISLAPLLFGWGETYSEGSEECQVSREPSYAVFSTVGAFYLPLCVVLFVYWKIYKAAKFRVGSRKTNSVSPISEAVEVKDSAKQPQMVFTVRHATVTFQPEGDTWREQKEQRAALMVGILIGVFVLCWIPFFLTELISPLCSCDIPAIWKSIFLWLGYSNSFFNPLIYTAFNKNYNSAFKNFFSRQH
Sequence of UniProt P42681 (whole entry, looked up): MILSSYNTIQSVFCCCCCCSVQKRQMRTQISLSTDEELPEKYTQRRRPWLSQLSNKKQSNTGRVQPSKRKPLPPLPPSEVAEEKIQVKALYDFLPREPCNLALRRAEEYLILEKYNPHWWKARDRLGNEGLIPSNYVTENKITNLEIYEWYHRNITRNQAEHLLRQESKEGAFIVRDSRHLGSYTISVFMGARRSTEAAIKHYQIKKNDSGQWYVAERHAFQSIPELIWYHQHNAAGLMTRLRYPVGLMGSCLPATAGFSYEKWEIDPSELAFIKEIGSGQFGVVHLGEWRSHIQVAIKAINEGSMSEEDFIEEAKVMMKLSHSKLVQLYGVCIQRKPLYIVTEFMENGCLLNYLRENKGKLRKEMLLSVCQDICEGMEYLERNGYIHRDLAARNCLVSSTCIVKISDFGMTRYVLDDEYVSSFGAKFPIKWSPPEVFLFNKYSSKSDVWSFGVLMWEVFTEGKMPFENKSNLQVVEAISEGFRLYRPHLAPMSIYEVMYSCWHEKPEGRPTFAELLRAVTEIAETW
Sequence of UniProt O75676 (whole entry, looked up): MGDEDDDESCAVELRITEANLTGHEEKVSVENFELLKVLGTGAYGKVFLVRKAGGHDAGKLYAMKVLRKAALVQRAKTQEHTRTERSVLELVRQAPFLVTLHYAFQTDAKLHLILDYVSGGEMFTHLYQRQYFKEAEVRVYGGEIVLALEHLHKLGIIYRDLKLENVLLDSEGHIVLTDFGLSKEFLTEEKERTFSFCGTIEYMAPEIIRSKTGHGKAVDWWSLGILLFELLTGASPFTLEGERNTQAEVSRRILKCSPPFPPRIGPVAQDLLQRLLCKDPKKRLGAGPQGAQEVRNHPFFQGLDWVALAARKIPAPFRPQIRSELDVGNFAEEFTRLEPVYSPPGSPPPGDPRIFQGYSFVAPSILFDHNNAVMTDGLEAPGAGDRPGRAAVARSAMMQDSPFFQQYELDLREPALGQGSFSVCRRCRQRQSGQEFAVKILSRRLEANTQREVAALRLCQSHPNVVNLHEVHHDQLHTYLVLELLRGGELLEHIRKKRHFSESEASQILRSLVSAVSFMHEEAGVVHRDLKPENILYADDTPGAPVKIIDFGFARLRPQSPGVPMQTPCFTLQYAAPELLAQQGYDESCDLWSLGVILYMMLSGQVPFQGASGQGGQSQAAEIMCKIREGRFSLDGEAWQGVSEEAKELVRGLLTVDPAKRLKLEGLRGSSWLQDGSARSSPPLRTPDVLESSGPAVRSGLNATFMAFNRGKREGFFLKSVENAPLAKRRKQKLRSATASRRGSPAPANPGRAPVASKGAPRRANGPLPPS
Sequence of UniProt Q6P2M8 (whole entry, looked up): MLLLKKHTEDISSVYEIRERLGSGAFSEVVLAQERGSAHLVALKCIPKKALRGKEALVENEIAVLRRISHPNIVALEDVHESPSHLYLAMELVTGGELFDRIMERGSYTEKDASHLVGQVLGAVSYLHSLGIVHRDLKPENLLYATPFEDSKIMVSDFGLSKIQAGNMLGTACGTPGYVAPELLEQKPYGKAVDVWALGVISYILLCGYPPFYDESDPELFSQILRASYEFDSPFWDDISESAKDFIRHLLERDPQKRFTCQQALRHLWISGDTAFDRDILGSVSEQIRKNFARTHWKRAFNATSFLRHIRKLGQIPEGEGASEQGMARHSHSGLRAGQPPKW
Sequence of UniProt Q16566 (whole entry, looked up): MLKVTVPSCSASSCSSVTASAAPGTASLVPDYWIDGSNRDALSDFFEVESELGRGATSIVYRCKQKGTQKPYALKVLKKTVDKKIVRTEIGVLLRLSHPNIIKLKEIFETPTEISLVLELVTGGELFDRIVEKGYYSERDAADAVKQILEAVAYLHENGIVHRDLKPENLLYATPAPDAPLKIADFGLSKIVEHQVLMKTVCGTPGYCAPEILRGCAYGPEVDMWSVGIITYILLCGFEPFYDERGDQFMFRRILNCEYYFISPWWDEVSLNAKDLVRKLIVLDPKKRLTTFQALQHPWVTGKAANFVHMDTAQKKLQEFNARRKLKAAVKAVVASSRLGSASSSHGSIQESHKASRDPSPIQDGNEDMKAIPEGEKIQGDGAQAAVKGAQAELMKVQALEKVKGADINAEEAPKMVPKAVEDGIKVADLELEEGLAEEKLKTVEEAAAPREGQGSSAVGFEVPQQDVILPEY
Sequence of UniProt Q8WXR4 (whole entry, looked up): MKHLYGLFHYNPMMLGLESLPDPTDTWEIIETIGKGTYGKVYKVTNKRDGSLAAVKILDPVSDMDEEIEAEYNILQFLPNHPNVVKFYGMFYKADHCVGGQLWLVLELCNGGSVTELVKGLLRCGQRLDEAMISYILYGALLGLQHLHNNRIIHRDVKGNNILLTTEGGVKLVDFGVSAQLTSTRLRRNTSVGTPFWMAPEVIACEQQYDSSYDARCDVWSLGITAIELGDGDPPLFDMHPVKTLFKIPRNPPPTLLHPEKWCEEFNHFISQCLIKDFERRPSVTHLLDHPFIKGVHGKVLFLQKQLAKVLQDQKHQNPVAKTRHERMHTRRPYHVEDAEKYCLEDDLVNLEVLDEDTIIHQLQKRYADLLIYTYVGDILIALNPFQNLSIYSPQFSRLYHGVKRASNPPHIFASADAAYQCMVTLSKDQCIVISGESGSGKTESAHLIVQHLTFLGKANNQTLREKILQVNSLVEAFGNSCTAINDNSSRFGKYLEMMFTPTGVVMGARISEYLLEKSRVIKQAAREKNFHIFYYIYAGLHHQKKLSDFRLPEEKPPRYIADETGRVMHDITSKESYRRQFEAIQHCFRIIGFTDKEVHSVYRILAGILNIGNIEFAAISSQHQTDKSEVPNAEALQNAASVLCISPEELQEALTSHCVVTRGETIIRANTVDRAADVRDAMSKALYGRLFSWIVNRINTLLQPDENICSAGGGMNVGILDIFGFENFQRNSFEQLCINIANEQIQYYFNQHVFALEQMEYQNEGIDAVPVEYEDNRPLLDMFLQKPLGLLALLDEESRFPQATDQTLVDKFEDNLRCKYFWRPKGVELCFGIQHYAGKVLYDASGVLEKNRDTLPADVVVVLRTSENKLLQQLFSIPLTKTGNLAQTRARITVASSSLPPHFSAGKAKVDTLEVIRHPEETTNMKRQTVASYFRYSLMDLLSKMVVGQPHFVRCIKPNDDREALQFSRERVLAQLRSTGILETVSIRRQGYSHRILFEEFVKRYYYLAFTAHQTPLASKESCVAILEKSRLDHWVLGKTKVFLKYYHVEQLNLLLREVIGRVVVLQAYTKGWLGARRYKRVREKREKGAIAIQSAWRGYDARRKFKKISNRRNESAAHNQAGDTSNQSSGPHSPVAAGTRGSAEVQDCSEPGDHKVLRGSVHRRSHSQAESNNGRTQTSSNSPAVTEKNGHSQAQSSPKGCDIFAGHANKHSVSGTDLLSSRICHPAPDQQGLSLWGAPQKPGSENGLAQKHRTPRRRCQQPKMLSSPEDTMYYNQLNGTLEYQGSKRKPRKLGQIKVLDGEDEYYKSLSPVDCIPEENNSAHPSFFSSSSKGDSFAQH
Sequence of UniProt P31751 (whole entry, looked up): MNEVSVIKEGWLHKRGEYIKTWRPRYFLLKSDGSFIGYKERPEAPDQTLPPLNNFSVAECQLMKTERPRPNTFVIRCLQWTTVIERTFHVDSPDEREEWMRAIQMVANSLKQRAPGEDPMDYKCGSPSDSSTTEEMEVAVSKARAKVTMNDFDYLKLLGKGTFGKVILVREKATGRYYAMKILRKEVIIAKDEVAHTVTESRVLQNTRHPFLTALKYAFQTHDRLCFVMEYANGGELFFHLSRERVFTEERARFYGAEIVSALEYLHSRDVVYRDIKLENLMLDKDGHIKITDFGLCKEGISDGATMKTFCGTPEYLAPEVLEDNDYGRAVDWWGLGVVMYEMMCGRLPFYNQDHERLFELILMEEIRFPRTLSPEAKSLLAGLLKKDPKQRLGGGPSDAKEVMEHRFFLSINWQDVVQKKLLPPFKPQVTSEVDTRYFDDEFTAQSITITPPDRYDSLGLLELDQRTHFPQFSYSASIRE
Sequence of UniProt Q9H4B4 (whole entry, looked up): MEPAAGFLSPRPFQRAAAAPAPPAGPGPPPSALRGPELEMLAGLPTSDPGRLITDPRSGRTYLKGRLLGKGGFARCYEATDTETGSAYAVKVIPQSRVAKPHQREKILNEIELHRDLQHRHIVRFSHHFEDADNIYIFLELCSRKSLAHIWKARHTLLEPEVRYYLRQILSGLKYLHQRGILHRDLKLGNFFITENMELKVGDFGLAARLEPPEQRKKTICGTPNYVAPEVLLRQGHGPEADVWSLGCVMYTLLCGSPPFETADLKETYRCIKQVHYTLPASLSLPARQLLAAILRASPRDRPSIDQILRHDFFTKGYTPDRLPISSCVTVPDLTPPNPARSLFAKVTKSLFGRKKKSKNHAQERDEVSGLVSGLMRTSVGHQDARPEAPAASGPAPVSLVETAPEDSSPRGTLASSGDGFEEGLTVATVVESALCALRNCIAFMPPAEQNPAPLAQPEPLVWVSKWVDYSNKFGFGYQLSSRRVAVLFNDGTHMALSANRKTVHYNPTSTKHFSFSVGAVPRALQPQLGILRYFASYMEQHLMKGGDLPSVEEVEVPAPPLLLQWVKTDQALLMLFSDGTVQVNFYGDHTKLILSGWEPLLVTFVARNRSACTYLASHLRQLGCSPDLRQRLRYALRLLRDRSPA

Study 1
Target: CEP164, C-terminal peptide (human)
Technique: DHFR complementation, deep sequencing
Medium: yeast
Notes: single substitutions, model-inferred values
Reference: wild type
Reading: higher = weaker binding
Starting sequence: PDZK1, PDZ domain 2 (human); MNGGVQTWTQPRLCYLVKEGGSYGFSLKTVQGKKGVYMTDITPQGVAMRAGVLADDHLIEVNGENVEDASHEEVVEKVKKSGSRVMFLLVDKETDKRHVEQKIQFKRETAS; partner HNRVKVYRF
Change | binding free energy change [kcal/mol]
K79F | 1.09
V5W | 0.0333
E100T | -0.15
L88D | 2.2
E72S | 0.584
I59V | 0.165
A54I | 0.199
E72Y | 0.553

Study 2
Target: Interferon regulatory factor 7, full length, phosphomimetic (IRF7, Homo sapiens, UniProt Q92985, residues 1-503, S471D/S472D/S475D/S476D/S477D/S483D/S484D/S487D)
Technique: protein-binding microarray
Form: double-stranded DNA, one strand shown
Medium: in vitro
Concentration: 2200 nM top
Notes: 60-bp whole probe
Together with: salmon DNA 0.4 mg/ml
Reference: random background probes
Reading: higher = stronger binding
All sequences stand within: GCCTAGCAC … GTCTTGATTCGCTTGACGCTGCTG
Residues (chain): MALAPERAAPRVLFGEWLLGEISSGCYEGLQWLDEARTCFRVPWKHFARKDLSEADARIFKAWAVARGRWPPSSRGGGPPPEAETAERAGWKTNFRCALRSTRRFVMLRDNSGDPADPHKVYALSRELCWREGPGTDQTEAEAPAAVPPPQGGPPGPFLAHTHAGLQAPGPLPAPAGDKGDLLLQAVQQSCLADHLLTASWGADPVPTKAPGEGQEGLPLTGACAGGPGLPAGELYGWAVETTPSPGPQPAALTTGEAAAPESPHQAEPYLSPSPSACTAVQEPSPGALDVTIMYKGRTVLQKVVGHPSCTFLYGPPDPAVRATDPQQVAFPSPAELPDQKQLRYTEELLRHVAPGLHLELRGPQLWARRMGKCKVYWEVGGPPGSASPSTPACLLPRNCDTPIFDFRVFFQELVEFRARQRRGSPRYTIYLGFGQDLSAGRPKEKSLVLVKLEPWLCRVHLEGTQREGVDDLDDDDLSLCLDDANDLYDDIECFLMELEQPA
Oligonucleotide | fitted relative affinity [z-score]
TTAGAACTGAGTATCGCTTAGTGCTAG | -0.26
TTATGTTTCGACTTTCGGTTAGTGCTA | 10.5
GGCGATTTCGGGTATCGAGACGTGCTA | 2.75
TCAATTTTGGTTTTCTCACTGTGCTAG | 2.62
CTCTTTTTGCTTTCTTTATGGTGCTAG | 3.89
TTTGGACTGGGTATCGGTTAGTGCTAG | 0.235
TCAACTTTGACTTAAGAACTGTGCTAG | -0.0449
GACGGACTGGGGGATCGGGACGTGCTA | -0.124

Study 3
SMILES: O=C(Nc1ccc(Cl)cc1)c1ccccc1NCc1ccncc1
Read-out: enzyme activity
Action: inhibitor
Concentration: 0.5 µM
Reference: control
target | remaining activity [%]
PAK3 (Homo sapiens, UniProt O75914) | 95.5
NEK3 (Homo sapiens, UniProt P51956) | 90.5
GRK4 (Homo sapiens, UniProt P32298) | 96.8
TXK (Homo sapiens, UniProt P42681) | 97.7
PNCK (Homo sapiens, UniProt Q6P2M8) | 94.8
RPS6KA4 (Homo sapiens, UniProt O75676) | 90.2
MARK2 (Homo sapiens, UniProt Q7KZI7) | 92.7
MAP2K1 (Homo sapiens, UniProt Q02750) | 96.8
Myosin-IIIb (MYO3B, Homo sapiens, UniProt Q8WXR4) | 82
AKT2 (Homo sapiens, UniProt P31751) | 95.2
CDC42BPB (Homo sapiens, UniProt Q9Y5S2) | 79.9
PLK3 (Homo sapiens, UniProt Q9H4B4) | 98.5
DCLK2 (Homo sapiens, UniProt Q8N568) | 95.2
CAMK4 (Homo sapiens, UniProt Q16566) | 101

Other studies, line by line
Structure (SMILES) | target | read-out | concentration | measurement | value
COc1cccc(CNC(=O)c2nc3scc(COCc4ccc(C(=O)O)cc4)c3c(=O)[nH]2)c1 | 5-hydroxytryptamine receptor 5A (HTR5A, Homo sapiens, UniProt P47898) | ligand displacement | 10 µM | inhibition | -11.9%

A few entries again (study 1):
Change | binding free energy change [kcal/mol]
I59V | 0.165
E100T | -0.15
V5W | 0.0333
A54I | 0.199
